# Measurements from different studies.
# Each numbered part is a random draw from the data of one study; scales do not carry over between parts. Substitutions count along the parent as printed.

# Series 1 — target: CCNF, cyclin fold, Cln2 fusion (human); method: yeast growth competition, sequencing; sample: yeast; setting: strong parent motif; relative to: not given; reading: higher = stronger binding; starting sequence: viral docking peptide; KKVKRRLFETREL
Change,normalised enrichment score
KKVKARAFETREL [R5A L7A],0.435
KKVKRRLLETREL [F8L],0.897
KKVKRRLAETREL [F8A],0.714
KKVKRRLFEAREL [T10A],7.44
KKAKRRLFETREL [V3A],5.45
KKVKRALFETREL [R6A],4.61
KKVKRRAFETREL [L7A],2.77
KKVKRRLFETRAL [E12A],6.7
KKVKRRLFETAEL [R11A],7.66

# Series 2 — target: CRIPT, C-terminal peptide; method: DHFR complementation, deep sequencing; sample: yeast; relative to: wild type; reading: higher = weaker binding
# Setting: single substitutions, model-inferred values
# Starting sequence: ERBIN, PDZ domain 1 (human); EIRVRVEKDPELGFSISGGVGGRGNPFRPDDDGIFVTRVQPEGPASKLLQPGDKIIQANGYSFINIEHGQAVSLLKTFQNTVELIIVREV; partner TKNYKQTSV
Change,binding free energy change [kcal/mol]
K47C,0.0949
K47N,0.0865
V39R,0.668
Q79G,0.0149
I34V,0.331
Q70R,0.0571
D32C,0.0871
D53N,0.229

# Series 3 — method: DNA-protein interaction ELISA; form: double-stranded DNA, one strand shown; sample: in vitro, bacterial lysate; tested at: not given; setting: whole dsDNA probe, crude lysate protein; relative to: highest signal in screen; reading: higher = stronger binding
# Target: Probable WRKY transcription factor 33, N-terminal DNA-binding domain (WRKY33, Arabidopsis thaliana, UniProt Q8S8P5, residues 169-264)
# Construct (chain): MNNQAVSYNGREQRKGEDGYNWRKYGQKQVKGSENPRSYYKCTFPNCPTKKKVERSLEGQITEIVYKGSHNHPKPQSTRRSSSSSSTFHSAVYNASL
Oligonucleotide,relative absorbance
AAAAAACCGACCTGCACGTCGCTGCTAAAA,21.7 % of maximum
AAAAAATATTCGCCGGTAGCCACGCTAAAA,33.3 % of maximum
AAAAAATCCACGACTCAGCAGCTCTTAAAA,21.6 % of maximum
AAAAAAAAATGCTAGCGCGTACGTAAAAAA,20.6 % of maximum
AAAAAATATGTTTTCGCTTTATTCTTAAAA,16 % of maximum
AAAAAAAACAAAACCTCCTAATAGCGAAAA,23.6 % of maximum
AAAAAACTTCCCTCCTTGTCCTCCCCAAAA,31.4 % of maximum
AAAAAAGGGCGAGCGCTGGATCCACAAAA,22.9 % of maximum

# Further values, each from its own experiment — method: cross-linking MS
Molecule,partner,test system,conditions,quantity,value
"KHDRBS3 (Homo sapiens, UniProt O75525)","KHDRBS1 (Homo sapiens, UniProt Q07666)",,hits only,interaction screen,cross-linked
"CANX (Homo sapiens, UniProt P27824)","PDIA3 (Homo sapiens, UniProt P30101)",cell fractions,with: DSSO,cross-linked residues,K384 to K129
"WDR36 (Homo sapiens, UniProt Q8NI36)","NOP58 (Homo sapiens, UniProt Q9Y2X3)",cell fractions,with: DSSO,cross-linked residues,K182 to K441
"STMN1 (Homo sapiens, UniProt P16949)","TUBA1C (Homo sapiens, UniProt Q9BQE3)",,hits only,interaction screen,cross-linked

# For quick reference, copied from above (series 1):
Change,normalised enrichment score
KKVKRRLFETAEL [R11A],7.66
KKVKRRLAETREL [F8A],0.714
KKVKARAFETREL [R5A L7A],0.435
